Published values from different studies.
Protocols differ between the studies behind these lines. ± marks the error that the study gave.

Oc1ccc(-c2ccc(Cl)cc2)cc1
fold change (microarray, refers to: Pigt mRNA; F344 Big Blue rats, female, liver; dose not given; reference: corn oil, decrease): 39.4 fold

CCS(=O)(=O)Nc1ccc(Oc2ccc(F)cc2F)c(-c2cn(C)c(=O)c3[nH]ccc23)c1
median survival (mouse, MP41 metastatic uveal melanoma xenograft; oral, 2 mg/kg 5 times weekly): 121 days

CC(NC(C)(C)C)C(=O)c1cccc(Cl)c1 (stereo not drawn)
AD50 (nicotine hypothermia, antagonist; mouse; with: nicotine 2.5 mg/kg s.c.): 9.2 mg/kg

Cn1cc(C2=C(c3coc4ccc(F)cc34)C(=O)NC2=O)c2cc3c(cc21)OCO3
tumour weight (male nude mice 786-O xenograft; intraperitoneal, 20 mg/kg thrice weekly, 4 weeks): 279 ± 91.3 mg

C[C@@H]1NC(C)(C)CO[C@@]1(O)c1cccc(Cl)c1
AD50 (nicotine antinociception blockade, antagonist, tail-flick test; mouse; 15 min pretreatment, with: nicotine 2.5 mg/kg subcutaneous): 0.2 mg/kg

Oc1cc2c(cc1O)C(c1ccccc1)CNCC2 (stereo not drawn)
dose for full substitution (cocaine-appropriate responding, drug discrimination; male rats trained on cocaine; intraperitoneal, BMS, with: cocaine 10 mg/kg training dose): 18 to 32 mg/kg

c1ccc(-c2ncc3cc(-n4ccnc4)ccc3n2)cc1
dose reduction factor (ED50 in combination, isobologram; rat, capsaicin hyperalgesia; dose not given, with: morphine): ~4 fold

NCC(=O)Nc1cncc(-c2nn3c(=O)cc(N4CCNCC4)nc3s2)c1
time to platelet recovery (platelet function, VerifyNow iso-TRAP; STEMI patients; subcutaneous, 0.075 to 0.11 mg/kg; return to 50% inhibition): ~90 min

Cc1ccc([C@]2(O)OCC(C)(C)N[C@H]2C)cc1
AD50 (nicotine antinociception blockade, antagonist, tail-flick test; mouse; 15 min pretreatment, with: nicotine 2.5 mg/kg subcutaneous): 0.004 mg/kg

COc1cc2cc(c1Cl)N(C)C(=O)C[C@H](OC(=O)[C@H](C)N(C)C(=O)CCS)[C@]1(C)O[C@H]1[C@H](C)[C@@H]1C[C@@](O)(NC(=O)O1)[C@H](OC)/C=C/C=C(\C)C2
survival (NSG mice, orthotopic UMUC3 bladder tumour; intravenous, 0.75 mg/kg weekly, 100 days, 3 weeks): 0%

C[C@@H]1NC(C)(C)CO[C@@]1(O)c1cccc(Br)c1
AD50 (nicotine antinociception blockade, antagonist, tail-flick test; mouse; 15 min pretreatment, with: nicotine 2.5 mg/kg subcutaneous): 0.16 mg/kg

CC(C)(O)c1coc(S(=O)(=O)NC(=O)Nc2c3c(cc4c2CCC4)CCC3)c1
IFN-γ and IL-17 producing T cells (C57BL/6 mouse, EAE model; dose not given, day 22): decreased

CN[C@@](C)(C[18F])C(=O)O
tracer uptake (DU-145 tumour model; host not given, tumour; 2 h, tumour-bearing): 4 %ID/g

COc1cccc(O)c1-c1cc(=O)c2c(O)c(OC)c(OC)c(OC)c2o1
blood urea (C57BL/6 mouse, aristolochic acid I renal fibrosis; oral gavage, 30 or 60 mg/kg, day 14, with: aristolochic acid I 10 mg/kg i.p. single; reference: aristolochic acid I group): decreased

O=S(=O)(F)Cc1ccccc1
protease cleavage (bait peptide cleavage, inhibitor, MALDI-TOF/TOF; Glycine max xylem sap; 1 mM, 2 h, 4 °C): inhibited

CCCCCCCCCCCCCCCC(=O)OCC(O)CO (stereo not drawn)
IC50 (ABTS scavenging, absorbance; 15 min): 132 µM

CCCN1CCC[C@@H]2Cc3n[nH]cc3C[C@H]21
dose for full substitution (cocaine-appropriate responding, drug discrimination; male rats trained on cocaine; intraperitoneal, BMS, with: cocaine 10 mg/kg training dose): 0.061 to 0.18 mg/kg

neuropeptide Y
cumulative testosterone release (rat, plasma; intratesticular, 1 µg/kg, with: hCG): 22.7 ± 3.15 ng/mL

COc1cc2c(cc1O)[C@@H]1Cc3ccc(OC)c(OC)c3CN1CC2
CPP score (CD-1 mice; ip, 10 mg/kg, 10 min before cocaine, 6 days, with: cocaine 20 mg/kg; direction not given): 65 ± 81 s

O=c1[nH]cc(F)c(=O)[nH]1
mean survival time (Ehrlich ascites carcinoma mouse; dose not given): 16.6 days

CC(C)C[C@H](NC(=O)[C@H](Cc1ccc(O)cc1)NC(=O)CNC(=O)[C@H](CC(C)C)NC(=O)[C@@H]1CCCN1C(=O)CCCc1cn(CC(=O)NC(COCc2cn(CCO[C@H]3O[C@H](CO)[C@@H](O)[C@H](O)[C@@H]3O)nn2)(COCc2cn(CCO[C@H]3O[C@H](CO)[C@@H](O)[C@H](O)[C@@H]3O)nn2)COCc2cn(CCO[C@H]3O[C@H](CO)[C@@H](O)[C@H](O)[C@@H]3O)nn2)nn1)C(=O)NCC(=O)NCCCC[C@H](NC(=O)[C@H](CCCCN)NC(=O)[C@H](CC(=O)O)NC(=O)[C@@H]1CCCN1C(=O)[C@H](CCCNC(=N)N)NC(=O)[C@H](Cc1c[nH]cn1)NC(=O)[C@H](Cc1c[nH]c2ccccc12)NC(=O)[C@H](CO)NC(=O)[C@H](C)NC(=O)CNC(=O)[C@@H](N)CC(C)C)C(=O)N[C@@H](CC(C)C)C(=O)N[C@H](C(=O)N[C@@H](Cc1ccccc1)C(=O)N[C@@H](Cc1ccccc1)C(=O)N[C@@H](C)C(=O)N[C@@H](CCC(=O)O)C(=O)N[C@@H](CS)C(=O)NCC(=O)O)C(C)C
M2-like macrophages (flow cytometry, refers to: CD206 of F4/80+ CD11b+; mouse tumour, tumour; 100 µL, 500 µM, 10 days): 17.3%

Cc1sc2c(c1C)C(c1ccc(Cl)cc1)=N[C@@H](CC(=O)OC(C)(C)C)c1nnc(C)n1-2
median survival (mice, MB002 intracranial xenograft; intraperitoneal, 50 mg/kg daily, with: ribociclib 100 mg/kg oral daily): 40 days

[C-]#[O+]
inhibition (benzocaine metabolism; human erythrocytes in plasma; concentration not given, 37 °C, with: benzocaine 3 µg/mL): no inhibition

CN[C@H](CC(C)C)C(=O)N[C@H]1C(=O)N[C@@H](CC(N)=O)C(=O)N[C@H]2C(=O)N[C@H]3C(=O)N[C@H](C(=O)N[C@H](C(=O)O)c4cc(O)cc(O)c4-c4cc3ccc4O)[C@H](O)c3ccc(c(Cl)c3)Oc3cc2cc(c3O[C@@H]2O[C@H](CO)[C@@H](O)[C@H](O)[C@H]2O[C@H]2C[C@](C)(N)[C@H](O)[C@H](C)O2)Oc2ccc(cc2Cl)[C@H]1O
clinical success (Japanese patients with SSTI; intravenous, 1 g twice daily, 7 to 14 days, test-of-cure, MITT-MRSA): 84.2%

N=C(N)NC(=O)c1nc(Cl)c(N2CCCCCC2)nc1N
urine volume (Sprague-Dawley rat; iv, 1.5 mg/kg, 6 h, with: acetazolamide 25 mg/kg; reference: acetazolamide alone): no effect

COC[C@@H](NC(C)=O)C(=O)NCc1ccc(-c2cccc(F)c2)cc1
paw withdrawal threshold (von Frey; Sprague-Dawley rat, tibial nerve injury; ip, 10 mg/kg, 14 days after injury): 40 ± 4.9 mN

Cc1cc(O)cc(C)c1C[C@H](N)C(=O)N[C@@H]1CCCc2ccc(Cc3cccc4ccccc34)cc21
antinociception (warm water tail withdrawal; C57BL/6 mice; intraperitoneal, up to 10 mg/kg cumulative): inactive

COc1ncc(-c2nc(C(=O)NC(=N)N)c(N)nc2N2CCCCCC2)cn1
sodium excretion (Sprague-Dawley rat, urine; iv, 1.5 mg/kg, 6 h, with: acetazolamide 25 mg/kg; reference: acetazolamide alone): no effect

O=C1O[C@H]([C@@H](O)CO)C(O)=C1O
IC50 (ABTS scavenging, absorbance; 15 min): 30.4 µM

Oc1ccc2c3c1O[C@H]1c4ncc(-c5ccc(Cl)cc5)cc4C[C@@]4(O)[C@@H](C2)N(CC2CC2)CC[C@]314
plasma corticosterone (rat; intraperitoneal, 5 mg/kg; reference: vehicle): no effect

CCC1CC(N2CCCCC2)CC(CC)N1C(=O)Oc1c(OC)cc(-c2nc(-c3ccccc3)c(-c3cccs3)[nH]2)cc1OC (stereo not drawn)
GFP+ EV release into blood (GFAP-EGFP mice, intrastriatal IL-1β; oral, 3 mg/kg DPTIP equivalent, 30 min before IL-1β, read 4 h after, with: IL-1β): inhibited

CC(C)(NC(=O)O[C@@H]1CN2CCC1CC2)c1csc(-c2ccc(F)cc2)n1
glucosylsphingosine median (sample A patients, CSF; oral, 15 mg once daily, week 52, with: imiglucerase): 11.5 pg/mL

WRWWWW-NH2 (C-amide)
leukocyte influx (inhibitor; peptide, BALB/c mouse, female, air pouch; 7.5 mg/kg, 4 h, dosed 15 min before, with: PSMα2 27 µM): inhibited

CC(=O)N1CC[C@@H](NC(=O)[C@@H](N)Cc2c(C)cc(O)cc2C)c2cc(CC3CCCCC3)ccc21
antinociception (warm water tail withdrawal; C57BL/6 mice; intraperitoneal, up to 10 mg/kg cumulative): inactive

O=c1cc(-c2ccc(O)cc2)oc2cc(O)cc(O)c12
IC50 (ABTS scavenging, absorbance; 15 min): 52.9 µM

CC(=O)O[C@H]1C(=O)[C@@]2(C)[C@H]([C@H](OC(=O)c3ccccc3)[C@]3(O)C[C@H](OC(=O)[C@H](O)[C@@H](NC(=O)c4ccccc4)c4ccccc4)C(C)=C1C3(C)C)[C@]1(OC(C)=O)CO[C@@H]1C[C@@H]2O
median survival time (mice intracranial C6 glioma; iv, 3 mg/kg, paclitaxel formulation): 29 days

For quick reference, copied from above:
CN[C@H](CC(C)C)C(=O)N[C@H]1C(=O)N[C@@H](CC(N)=O)C(=O)N[C@H]2C(=O)N[C@H]3C(=O)N[C@H](C(=O)N[C@H](C(=O)O)c4cc(O)cc(O)c4-c4cc3ccc4O)[C@H](O)c3ccc(c(Cl)c3)Oc3cc2cc(c3O[C@@H]2O[C@H](CO)[C@@H](O)[C@H](O)[C@H]2O[C@H]2C[C@](C)(N)[C@H](O)[C@H](C)O2)Oc2ccc(cc2Cl)[C@H]1O
clinical success (Japanese patients with SSTI; intravenous, 1 g twice daily, 7 to 14 days, test-of-cure, MITT-MRSA): 84.2%

N=C(N)NC(=O)c1nc(Cl)c(N2CCCCCC2)nc1N
urine volume (Sprague-Dawley rat; iv, 1.5 mg/kg, 6 h, with: acetazolamide 25 mg/kg; reference: acetazolamide alone): no effect

COC[C@@H](NC(C)=O)C(=O)NCc1ccc(-c2cccc(F)c2)cc1
paw withdrawal threshold (von Frey; Sprague-Dawley rat, tibial nerve injury; ip, 10 mg/kg, 14 days after injury): 40 ± 4.9 mN

Cc1cc(O)cc(C)c1C[C@H](N)C(=O)N[C@@H]1CCCc2ccc(Cc3cccc4ccccc34)cc21
antinociception (warm water tail withdrawal; C57BL/6 mice; intraperitoneal, up to 10 mg/kg cumulative): inactive

COc1ncc(-c2nc(C(=O)NC(=N)N)c(N)nc2N2CCCCCC2)cn1
sodium excretion (Sprague-Dawley rat, urine; iv, 1.5 mg/kg, 6 h, with: acetazolamide 25 mg/kg; reference: acetazolamide alone): no effect
